# Measurements collected from several papers.
# Every numbered part comes from another study and shows a few of its results, in no order.

# Set 1 — technique: RNA Bind-n-Seq; form: RNA; medium: in vitro; concentration: 200 nM; notes: whole 134-nt RNA, ends assumed; with: 150 mM KCl; reference: input library; direction: higher = stronger binding
# Target: Ras GTPase-activating protein-binding protein 1, full length (G3BP1, Homo sapiens, UniProt Q13283)
# Sequence of UniProt Q13283 (whole entry, looked up): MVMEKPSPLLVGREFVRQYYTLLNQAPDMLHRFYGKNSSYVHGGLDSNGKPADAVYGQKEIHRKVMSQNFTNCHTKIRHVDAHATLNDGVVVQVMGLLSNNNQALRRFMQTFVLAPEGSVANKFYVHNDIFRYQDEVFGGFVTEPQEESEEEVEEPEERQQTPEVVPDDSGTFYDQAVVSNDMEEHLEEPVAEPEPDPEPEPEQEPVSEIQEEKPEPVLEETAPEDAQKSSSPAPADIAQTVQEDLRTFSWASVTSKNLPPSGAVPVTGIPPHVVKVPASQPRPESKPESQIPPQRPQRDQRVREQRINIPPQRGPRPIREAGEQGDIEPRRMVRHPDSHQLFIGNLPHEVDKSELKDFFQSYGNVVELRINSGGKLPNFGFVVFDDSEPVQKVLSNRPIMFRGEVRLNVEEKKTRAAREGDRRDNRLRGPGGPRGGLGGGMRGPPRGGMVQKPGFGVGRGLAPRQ
Sequence,log2 enrichment
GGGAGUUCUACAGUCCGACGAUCAAGUCCUGUGCUACACAUCGUAUGUACCGAAUCGGUUUUUGGUUUGGAAAAAAAGGAAAGUAUUAUGUUACGCCGUUCGGAUCUGCACUUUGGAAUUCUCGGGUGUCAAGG,-1.46
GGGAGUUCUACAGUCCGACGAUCACCAUGCAGGUGGGCAUCUUUGGGAAGUGGGGCAAGGGGGGGAUAGGGAGGGGGGUAACACUUUGGGAACAGGUGGUUCCAGGUCGUUUCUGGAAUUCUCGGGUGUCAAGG,0.92
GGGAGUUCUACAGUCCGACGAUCCCUGUGCUACACAUCGUAUGUACCGAAUCGGGAAAAAGGGUUUUUUUGGGAAAAAAAGGGAAAGUAUUAUGUUACGCCGUUCGGAUCUGCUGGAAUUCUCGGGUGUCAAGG,-1.06
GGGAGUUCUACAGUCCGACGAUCUAACUUUAGAGGAGGAUCUGAUAGAUAUGGCAGUGGACGUGGAUUUGGGGAUGGCUAUAAUGGGUAUGGAGGAGGACCUGGAGGUGGCAAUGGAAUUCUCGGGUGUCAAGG,0.311
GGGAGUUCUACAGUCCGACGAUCCACAGACAACACGCACCCACACAGACACAGAGGGAAGGGGUUGGGAUGGGGACAGGGAGCACAGCAGGGCGGGGUAGGACCCCAGCCCCUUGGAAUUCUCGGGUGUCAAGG,1.75
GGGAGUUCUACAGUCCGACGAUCAAGUCCUGUGCUACACAUCGUAUGUACCGAAUCGGGUUUUUGGUUUUUGGUUUUUGGAAAGUAUUAUGUUACGCCGUUCGGAUCUGCACUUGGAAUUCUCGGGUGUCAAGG,-1.28
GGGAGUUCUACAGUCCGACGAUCUCAAGUCCUGUGCUACACAUCGUAUGUACCGAAUCGGUUUUUGGUUUUUGGAGGAAAGUAUUAUGUUACGCCGUUCGGAUCUGCACUUCCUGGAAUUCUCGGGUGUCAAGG,-0.735
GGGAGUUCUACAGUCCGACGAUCAGUCCUGUGCUACACAUCGUAUGUACCGAAUCGGGAGGGUUUUUGGGAAAAAAAGGGAAAGUAUUAUGUUACGCCGUUCGGAUCUGCACUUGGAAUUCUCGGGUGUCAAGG,-0.348
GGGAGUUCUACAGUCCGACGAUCCACAGAUAACACGCACCCACACAGACACAGAGGGAAGGGGUUGGGAUGGGGACAGGGUGCACAGCAGGGCGGGGUAGGACCCCAGCCCCUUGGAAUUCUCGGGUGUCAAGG,1.77
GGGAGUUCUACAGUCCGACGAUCCUGUGCUACACAUCGUAUGUACCGAAUCGGGAAAAAAAGGAAAAAAAGGGGAAAAAAAGGGGAAAGUAUUAUGUUACGCCGUUCGGAUCUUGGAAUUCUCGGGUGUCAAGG,-0.632
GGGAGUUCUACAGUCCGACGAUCAGUCCUGUGCUACACAUCGUAUGUACCGAAUCGGGAAAAAGGGAAAAAGGGUUUGGGAAAGUAUUAUGUUACGCCGUUCGGAUCUGCACUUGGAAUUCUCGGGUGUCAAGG,-0.304
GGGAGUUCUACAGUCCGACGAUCAGUCCUGUGCUACACAUCGUAUGUACCGAAUCGGAAAAAAAGGAAAAAAAGGUUUGGAAAGUAUUAUGUUACGCCGUUCGGAUCUGCACUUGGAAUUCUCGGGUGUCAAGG,-1.89
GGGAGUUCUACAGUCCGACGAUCAAGUCCUGUGCUACACAUCGUAUGUACCGAAUCGGGCCCCGGCCCCGGGCCCCGGGAAAGUAUUAUGUUACGCCGUUCGGAUCUGCACUUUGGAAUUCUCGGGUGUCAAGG,-1.14
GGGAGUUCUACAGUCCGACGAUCAAGUCCUGUGCUACACAUCGUAUGUACCGAAUCGGUUUUGGGUUUUGGGGUUUUGGAAAGUAUUAUGUUACGCCGUUCGGAUCUGCACUUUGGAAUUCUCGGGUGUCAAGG,-0.961

# Set 2 — technique: RNAcompete; form: RNA; medium: in vitro; concentration: 20 nM; notes: 7-mer, probes averaged, single round; reference: mean of 7-mers; direction: higher = stronger binding
# Target: PABPC1L2, full length, GST fusion (mouse, UniProt A0ABA7IW68)
# Residues (chain): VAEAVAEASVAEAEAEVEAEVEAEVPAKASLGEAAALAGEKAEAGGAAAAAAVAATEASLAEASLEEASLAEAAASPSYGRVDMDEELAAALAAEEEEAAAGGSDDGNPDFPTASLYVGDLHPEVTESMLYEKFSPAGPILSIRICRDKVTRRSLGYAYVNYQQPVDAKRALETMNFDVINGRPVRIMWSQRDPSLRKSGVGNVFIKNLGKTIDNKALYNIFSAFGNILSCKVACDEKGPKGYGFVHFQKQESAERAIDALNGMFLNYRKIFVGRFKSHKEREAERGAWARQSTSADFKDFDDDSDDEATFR
Sequence,7-mer Z-score
AGAAAAA,11.7
GCGCCAU,-0.215
ACACACA,0.2
GACAUAA,0.57
AUUACGU,-0.0881
AUCAUUA,-0.135
UGUACUU,-0.264
CGGUUUG,-0.476
CCCUAAG,-0.296
CUAGGUU,-0.364
CUACCAU,-0.184
AUAGGUU,-0.0482
CCCGGAC,-0.287
AAUCCAG,-0.0591
AUUGUUG,-0.32
CAAGCGA,0.16
CGCAAAC,0.193
UUAAUUC,-0.175

# Set 3 — technique: RNA Bind-n-Seq; form: RNA; medium: in vitro; concentration: 365 nM; reference: no-protein control; direction: higher = stronger binding
# Target: RNA binding protein fox-1 homolog 2, RRM domain, GST-SBP tag (RBFOX2, Homo sapiens, UniProt O43251-10, residues 100-194)
# Notes: natural RNA segment, single round, ends assumed
# Target sequence (chain): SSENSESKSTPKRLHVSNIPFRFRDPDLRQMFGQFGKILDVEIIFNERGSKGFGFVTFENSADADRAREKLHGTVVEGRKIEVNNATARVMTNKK
Sequence,RBNS enrichment (R)
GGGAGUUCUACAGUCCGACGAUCAUGUGAGCAUUCUCAAACAAGAGACUAACUGAUGCUCCUGCUGUUAAAAAGGCAGAACUAGGGAGGUGACUUUAGGCCUCCUGCUGUGGCCUCUGAAGAAGGUGACUCUUUGGAAUUCUCGGGUGCCAA,0.319
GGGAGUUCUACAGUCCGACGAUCGCGAUCAAUUCUGCAUGGUCACAGUAGAGAUCCCCGCAACUCGCUUGUCCUUGGGUCACCCUGCAUUCCAUAGCCAUGUGCUUGUCCCUGUGCUCCCACGGUUCCCAGGGUGGAAUUCUCGGGUGCCAA,0.618
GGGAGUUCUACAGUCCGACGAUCAGGCUGGUACCGCAGCGCCAUGCCCAUUCCUCGCCUCAUUCAUAGGACACUUCACUGCCAUUUUCUAUUCACAUAAAAGAAAAAUAAAUGUGGAAAUUUCAUCCUUGGAAUGGAAUUCUCGGGUGCCAA,0.363
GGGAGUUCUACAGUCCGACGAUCAGACCUCCCCGCUCCAUGACGCUGCCGUGUGCCUACGCAGAUUACAGUGACGAAUACGUGUCAUGAUUUCAUCUCACCCAGUCACCGAGUGGAAAGCAAGCCGAGGUGUAUGGAAUUCUCGGGUGCCAA,0.621
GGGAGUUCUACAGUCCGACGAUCGGAGGAAGACCCUCAGUUAUUUUGUCACCCAACCUGGCAUAGGACUCUUUGGUCCUACCCGCUUCCCAUCACCGGAGGAGCUUCCCCGGCCGGGAGACCAGUGUUAGAGGUGGAAUUCUCGGGUGCCAA,0.2
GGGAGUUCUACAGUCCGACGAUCUCUUUUUUCCUAUUUUAAAAGUUCUAGUGGUAACACAAACUGUAAAUUUGAGUCAGAAUGUUUGGAGAAAUGUUGUUUUUUUUUUUUUCAGAGACUACUUUGUCACUCACUGGAAUUCUCGGGUGCCAA,1.42
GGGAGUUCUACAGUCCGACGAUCACUUUCUAGAUCAGAAAAAUUAUACACUACAGUUGAAGAGCUGAAUUCUACUAUGGAUGGAUGUUGUGAGCCCUUGCUUGGAAGCCUUCACCGUCUAGCUUCCCCAGGGUUGGAAUUCUCGGGUGCCAA,0.446
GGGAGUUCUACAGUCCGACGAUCCCAAAGAGUUUUCUGUGCAAAAUCUUGAGAAUCAAUCAAUAAAGAAAGAUGGAAGGAAGGGAGAAAUUGGAAUGUUUUAACUGCAGCCCUCAGAACUUUAGUAACAGCACUGGAAUUCUCGGGUGCCAA,0.446
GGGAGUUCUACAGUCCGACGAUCAGAAUGAGCCGAUAUUGGCUUAGUGCUCACUAGGGGACAUGCACAUGGAAGCUCACCUCUAAGAAAGGGCUGGGCAGAUGGAUUUAUUUUUUCCCACCUGUGAAUAUGUAUGGAAUUCUCGGGUGCCAA,2.57
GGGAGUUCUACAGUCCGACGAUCCAGCUGGGCGUCCAAGGGGGUCCUGGAACAGCAGACAUCUGACUGUCUGGUCCCUGGCUCCUCUGACCAGCCCUUAGGCUAUGUGGUGGCUUCUCUCUGCCUCAGUGUCCUGGAAUUCUCGGGUGCCAA,0.152
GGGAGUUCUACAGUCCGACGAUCUGCUAUGACUUUGAAAUUCACAGAAAGAAAUAACAGUUUAGAUUAGGUCUUCAGGUAUUCAGGAUAGAGAUAAUCUCCUGAAAAACCUGAAUUUCAGAGAUUCUUAGACUUGGAAUUCUCGGGUGCCAA,0.339
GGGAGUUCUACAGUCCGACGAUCAUUGCCCAAAAAACUGAAGAGUCAGCAGAUGCCAGGAGGAAAGCUGAGCUGCUACAAAAUGAAGCAAAAACACUCUUGGCUCAAGCUAACAGCAAGCUCCAGCUGUUGGAUGGAAUUCUCGGGUGCCAA,0.416

# Set 4 — technique: RNA Bind-n-Seq; form: RNA; medium: in vitro; concentration: 100 nM; reference: input RNA pool; direction: higher = stronger binding
# Target: RING finger protein unkempt homolog, zinc fingers 1-6, SBP tag (UNK, Homo sapiens, UniProt Q9C0B0, residues 30-357)
# Sequence of UniProt Q9C0B0 (30-357, looked up): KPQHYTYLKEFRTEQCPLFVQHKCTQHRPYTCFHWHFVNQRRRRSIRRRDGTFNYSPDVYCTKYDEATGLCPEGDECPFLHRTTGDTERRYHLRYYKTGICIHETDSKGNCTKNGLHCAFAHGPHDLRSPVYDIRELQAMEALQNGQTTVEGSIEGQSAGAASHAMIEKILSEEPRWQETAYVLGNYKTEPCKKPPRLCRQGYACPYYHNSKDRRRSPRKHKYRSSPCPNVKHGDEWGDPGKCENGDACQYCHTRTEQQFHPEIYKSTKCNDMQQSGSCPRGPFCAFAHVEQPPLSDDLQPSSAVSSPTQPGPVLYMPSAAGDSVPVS
# Notes: RNA with constant flanks, vertebrate orthologous sites, ends assumed
Sequence,bound/input enrichment [ratio]
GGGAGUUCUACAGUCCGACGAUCCUACAAUAAUGAAAACCUACAGGAAUUUUUUUUAUUUUCCAUUUCCCCCUUAGGCAUAUUUAGGCUUUUUUUCCCAGGCAGAUCAUUCUGAGUGUGCGUGUGUGUGCACAUGUUAAAAAGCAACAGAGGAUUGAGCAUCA,1.05
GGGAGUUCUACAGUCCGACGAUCAGAAGCAUGCACAUGUCGCUCUCACCAAAAGCAAACAUGUUCAAAAUCUCCGAUAGCGUUUUUAGUAUGCUUUCUUUCUGGCAACCAUUUAUACCUAGAUGCUGCAACAAUUGUUUUCUGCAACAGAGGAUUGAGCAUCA,0.62
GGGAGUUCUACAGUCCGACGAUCGUUGUGACCCCUUUAACAUCCAUAAAAAGCUGGCCAAAAAAAAUCUGCAUGUCAUUGACUUAGAUGAUGCCACUUUCCUGAGUGCGAAGUUUGGCAGGCAGCUGGUGCCUGGUUGGAAGCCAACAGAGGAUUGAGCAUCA,0.456
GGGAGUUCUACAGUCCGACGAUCACCUUUUGUAGGCCAAAUACCCUCCUUCUACUGCUUCUGCCAACUGGAAGCACAGAAAACUAGAAUUUCAUUUUAUUUGUUAAAAAAAAAAAUUGAUUUCUUGUAACAUCCACUAGGAAUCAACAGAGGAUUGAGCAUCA,0.536
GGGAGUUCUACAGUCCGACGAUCCUCGUUGCUCCCCUGUGAGGGAGUGGAGGGAGCCCAGGAUAACCCUCAGCUGUUCCAGUCCAGUAUUUUUUCUUUUUAAAAAAUUACUGUAUUUAUUAUGACGACGGUAGCUCCCCAAUGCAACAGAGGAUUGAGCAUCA,0.392
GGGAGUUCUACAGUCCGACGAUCUUCAGGCUCAACUGACUGUUUCACAGCAUUCCUUACACAGCUAUUUAACAAGUACAGGUGGAGUUAAUUUUCAGGAUACAUCUAGGCACUCAGCAUUAUCUUGCAGCCCAGUUGGAGAUGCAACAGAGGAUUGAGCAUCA,0.488
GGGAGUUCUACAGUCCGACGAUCCUAUAUGUAGAAAAACGAUUUUCACUGAAACCAUUGUCUAGUUUUUCCCCUAGAGUUUUAUUAGGAGCUCUUUAAUUUUAUACAAGCUUGCUGUGUUGGUCAUCAUUUCUCCAGAGUUAACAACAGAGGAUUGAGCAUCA,0.962
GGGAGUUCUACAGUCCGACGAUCACGCUUUGAUAUUAAAUUUGACAUAAGAAGCAGCUGAUUGUAAGCACAACUCUCUCCUCCUAGCCAUUUAAAAAGGUAAAAGACAAAAAAGAAAACCUACUAGUCUUGAACAAACUGUCACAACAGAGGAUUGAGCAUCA,0.957
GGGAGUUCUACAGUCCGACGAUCCCAGCUUAAUGAAAACUGUUUUACGACAUAUGACUUAAAAAGAAAAAGAAAGAAACAGCCUGGUUUUUGUCUGUCAAAGGAAGAGGAAAAAAAAGACCAUUGAAUCCAAAGCACACUGUACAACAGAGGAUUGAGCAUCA,0.567
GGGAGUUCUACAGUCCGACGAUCAUCCCAGUUUGUAUGCACAUUAUUCACAUUCCUAUCUGUUGUGUUUGCAGAAAUGACAUUUUACCCUUUUCUAAGGGUUAUUUUUGAUUUCAUACGAUUUGGUUGCAUGAAGUUGCCCUUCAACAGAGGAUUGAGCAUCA,0.289
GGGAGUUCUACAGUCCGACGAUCUCUCUCGCUUAACUGUGUCCGAAGUUGCUAUGAGGAUUGGAAACAUUCAUUAGUUUCAUGUAGAACUACACUGGCAGGUGCUCAAUUCCCAUCAUAGCAAGAUCAAAUACCAUCACAGUACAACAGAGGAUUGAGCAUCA,0.959
